Results of several laboratories.
Parts stem from different laboratories: compare values within a part only.
Chain of UniProt Q13761 (53-186, looked up): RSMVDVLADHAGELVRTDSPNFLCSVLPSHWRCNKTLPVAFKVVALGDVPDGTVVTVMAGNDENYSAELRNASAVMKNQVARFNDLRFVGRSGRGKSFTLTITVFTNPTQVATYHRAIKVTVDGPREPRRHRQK

Sample 1 — method: protein-binding microarray; form: double-stranded DNA, one strand shown; sample: in vitro; concentration: 940 nM top; notes: 60-bp whole probe; together with: salmon DNA 0.4 mg/ml; relative to: random background probes; direction: higher = stronger binding; measurement: fitted relative affinity; shared flanks, not repeated: GCCTAGCAC … GTCTTGATTCGCTTGACGCTGCTG
Target: Interferon regulatory factor 5, full length, phosphomimetic (IRF5, Homo sapiens, UniProt Q13568-2, residues 1-514, S451D/S453D/S456D/S462D)
TTAGCTTTCGACACTGGGTTAGTGCTA: 2.66 z-score
GACGATTTGAGTTCCGAGACGTGCTAG: 0.0967 z-score
GACGGTTTCCTTATCCTAACGTGCTAG: 1.56 z-score
GATTTTTTAGCTTGCAAAAAGTGCTAG: -0.514 z-score
TCAGTGATAGCTCTGGTACTGTGCTAG: -0.342 z-score
TTAGATTTCGTGTATCGATTAGTGCTA: 1.32 z-score
AACGGACTGGGTTTCGGGACGTGCTAG: 2.27 z-score
GTAGGTTTCGACACTGGGTTAGTGCTA: 7.04 z-score

Sample 2 — cell line: HEK-293T; organism: VSV pseudotyped with SARS-CoV-2 spike; concentration: 10 µM; time: 16 h; measurement: pseudovirus infection
O=c1n(CCCN2CCN(c3cccc(Cl)c3)CC2)nc2ccccn12: 67.6%
CN1[C@@H]2CC[C@H]1C[C@@H](OC(c1ccccc1)c1ccccc1)C2: 29.4%
CN/C(=N/CCSCc1nc[nH]c1C)NC#N: 87.3%

Sample 3 — action: inhibitor; concentration: 20 µM; measurement: inhibition
Target: Replicase polyprotein 1ab, nsp13 helicase (rep, Severe acute respiratory syndrome coronavirus 2, UniProt P0DTD1)
C[C@@]12C(=O)OC(=O)[C@]1(C)[C@H]1CC[C@@H]2O1: 1.77%
O=C1c2cccc3c2[C@H](CCC3)CN1[C@@H]1CN2CCC1CC2: 7.95%
O=C(O)CC[C@H]1CC[C@@](c2cc(F)ccc2F)(S(=O)(=O)c2ccc(Cl)cc2)CC1: -0.74%
O=C1c2ccccc2C(Cc2ccnc(F)c2)(Cc2ccnc(F)c2)c2ccccc21: 3.88%
CCCCN1CCCC1CNC(=O)c1cc(C#N)c2ccccc2c1OC (stereo not drawn): 10.1%
OC(CN1CCC(Cc2ccc(F)cc2)CC1)c1ccc(Cl)cc1 (stereo not drawn): 1.18%
CC(CN1c2ccccc2Sc2ccccc21)N(C)C (stereo not drawn): 1.6%
COC(=O)Nc1ccc(-c2nc(N3CCOCC3)c3cnn(C4CCN(Cc5cccnc5)CC4)c3n2)cc1: -3.87%
C=C1/C(=C\C=C2/CCC[C@]3(C)[C@@H]([C@H](C)/C=C/[C@H](C)C(C)(C)O)CC[C@@H]23)C[C@@H](O)C[C@@H]1O: 9.28%
Nc1ccc(S(N)(=O)=O)cc1: 1.14%
COc1ccc(C(=O)c2c(C)n(CCN3CCOCC3)c3cc(I)ccc23)cc1: -2.38%
CCCNC(=O)N1N=C(c2ccc(N)cc2)c2cc3c(cc2C1C)OCO3 (stereo not drawn): 13%
COc1ccc(C(=O)/C(Br)=C\C(=O)O)cc1: 10.7%
C[N+](C)(C)CCOP(=O)(O)OP(=O)([O-])OC[C@H]1O[C@@H](n2ccc(N)nc2=O)[C@H](O)[C@@H]1O: 0.24%
Cc1ccc2c(c1)c1c(n2CCc2ccc(C)nc2)CCN(C)C1: 48.8%
O=C(Nc1ccc2[nH]ccc2c1)c1ccccc1: -0.23%
O=C(NNC(=O)c1ccc(CNS(=O)(=O)c2ccc(F)c(Cl)c2)cc1)c1ccccc1: -1.46%
Cn1c(COc2ccc(CC3SC(=O)NC3=O)cc2)nc2ccccc2c1=O (stereo not drawn): 7.71%
Nc1ccn([C@@H]2O[C@H](CO)[C@@H](O)C2(F)F)c(=O)n1: 2.08%
Cn1cc(-c2ccc(F)c(C(F)(F)F)c2)nc1C1CCN(c2ncnc3[nH]ncc23)CC1: -0.23%
[NH-]c1c[n+](N2CCOCC2)no1: 3.4%
Nc1nc2cc(-c3ccc4ncc(C(=O)N5CCOCC5)n4c3)ccc2o1: 0.82%
Oc1ccc(CC2NCCc3cc(O)c(O)cc32)cc1 (stereo not drawn): 0.61%
c1ccc(C(NCc2cccnc2)(c2ccccc2)c2ccccc2)cc1: -2.29%
CC(=O)OC[C@H](N)C(=O)O: -17.3%

Sample 4 — method: RNA Bind-n-Seq; form: RNA; sample: in vitro; concentration: not given; notes: RNA with constant flanks, ends assumed; relative to: input RNA pool; direction: higher = stronger binding; measurement: bound/input enrichment
Target: RING finger protein unkempt homolog, zinc fingers 1-6, GST-SBP tag (UNK, Homo sapiens, UniProt Q9C0B0, residues 30-357)
Chain of UniProt Q9C0B0 (30-357, looked up): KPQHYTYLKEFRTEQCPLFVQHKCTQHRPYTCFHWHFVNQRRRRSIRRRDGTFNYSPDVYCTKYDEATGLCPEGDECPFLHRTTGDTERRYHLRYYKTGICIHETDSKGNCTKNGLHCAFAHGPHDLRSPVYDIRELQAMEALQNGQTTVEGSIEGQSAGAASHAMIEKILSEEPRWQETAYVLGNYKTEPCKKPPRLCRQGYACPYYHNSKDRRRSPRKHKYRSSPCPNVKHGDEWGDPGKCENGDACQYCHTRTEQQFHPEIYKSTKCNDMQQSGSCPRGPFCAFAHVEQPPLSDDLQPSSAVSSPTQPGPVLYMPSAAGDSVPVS
Shared flanks, not repeated: GGGAGUUCUACAGUCCGACGAUC … CAACAGAGGAUUGAGCAUCA
CCUCGUACAAAUGGCAUGUGUUCAGUAUGCUAUAAAGAACAUCUUCAAAGACAGAACCGCCGUAAUGGUAGAAUAAGCCCACCUGCAACCUCUGUCAGUAGUCUGUCUGAAUCUUUACCA: 0.222 ratio
ACCACUGGGACACUUCCACCACCAACUUUGUCUGCCUAUCAGCAUUCAUCUACCUUCCGCAACCGAAACUUUGCGACCACCUCACCUUUGGUGCUUCAAGAUUCAUCUUUUAACACUACA: 0.211 ratio
GAGAAAAUCAAGAUCAAGCCAGCCCCGUACCCCAUGGGAAGCAGCCAUGCUUCCGCCAGCCGCAUCAGCUUUAACCCCAGCCCUGAGGAGCCGGCCUAUGAUGGCCCAAGCACCAGCAGU: 0.128 ratio
UUUAGUGACUAUGGUAAGCUUUUGUUCAUUUGUUUCAGACUUUUUUCUCCUGUAAAAAAACCGUACUGAUUAACUUUUUUAAAAGAAAGAUUUUACUGUAAAUAUGGAUUUUUUUUUUUU: 1.52 ratio
CUGUGUGUGCUGAAUAAAUGGCUUGUAAAGAAGUUUUUCCAAGCUGUAACCCAUGCUGUUAUUACCGUUGCUGCAAAAUGUUCUUCCUGAUAUUGAUUUUAUUUGUUAACUGAAGGUCUC: 0.437 ratio
GUAUUGAACUUCACAGCCUUGCUCAUUGAGUACAGCUUUUCUCGGCAUCUGUACAGUUCCACCGAGCAUUUGACAACUUUAUUGGCUUCCUCUGAUAUGCAAGUGGUGCUGGCAGUCCUU: 0.152 ratio
UCCCUUCCCCUGGAGCACAACUUUACUUUCUGUGUCUCUGUUUUGCACAAUAAGAAACUCAGCCGGCAAAGGUUGUGUUUUUUUUUUUGGUAAGUUCACUUGCUUUUUAAAAUUUUUAUU: 0.227 ratio
CUCAGGAUGUCUUCAUCACAUUUUGCCAGUCGACACAGGAAGGAUAUAAGUACUGAAAUGAUCCGAACUAAAAUUGCUCAUAGGAAAUCACUGUCUCAGAAAGAAAAUAGACAUAAGGAA: 1.16 ratio

Further values, each from its own experiment — Sox-I: Sox-I, HMG box (Salpingoeca helianthica)
Sox2 HMG box: Transcription factor SOX-2, HMG box (Sox2, Mus musculus, UniProt P48432, residues 41-119)
Chain of UniProt P48432 (41-119, looked up): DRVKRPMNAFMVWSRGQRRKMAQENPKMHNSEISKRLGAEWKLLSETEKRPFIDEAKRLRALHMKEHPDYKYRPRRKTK
T1: Sox-I, HMG box (Salpingoeca helianthica); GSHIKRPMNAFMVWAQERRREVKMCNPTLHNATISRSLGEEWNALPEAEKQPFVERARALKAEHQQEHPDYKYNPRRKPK
GAGTCGTCTCGTCAGCACCATCGGGCCGTAGAGCACTCAGGTC
relative binding energy (T1, Sox-I, HMG box (Salpingoeca helianthica); Spec-seq; double-stranded DNA, one strand shown, in vitro; not given, whole probe, mean of replicates; relative to: not given, lower = stronger binding): 1.08 ln ratio

CCCCCCCCCCCCCCCCCC[S+](CCC)c1ccccc1C(=O)OCC (stereo not drawn)
inhibition (Replicase polyprotein 1ab, main protease (rep, Severe acute respiratory syndrome coronavirus 2, UniProt P0DTD1); enzyme activity, inhibitor; 20 µM, hit confirmation, no DTT): 74.6%

GAGTCGTCTCGTCAGCACCATGCGGCCGTAGAGCACTCAGGTC
relative binding energy (Sox2 HMG box; Spec-seq; double-stranded DNA, one strand shown, in vitro; not given, whole probe, mean of replicates; relative to: not given, lower = stronger binding): 0.518 ln ratio

GAGGCCTGTCGGGGTTGGCCTCCTGGCCAACCCCGACAGGCCTCACACTC (5mC at 33)
median fluorescence (Runt-related transcription factor 3, Runt domain (RUNX3, Homo sapiens, UniProt Q13761, residues 53-186); protein-binding microarray; hairpin DNA, in vitro; not given, whole hairpin DNA, median over replicate spots; relative to: not given, higher = stronger binding): 5210 a.u.

GAGTCGTCTCGTCAGCACGCGAGTTCCGTAGAGCACTCAGGTC
relative binding energy (Sox2 HMG box; Spec-seq; double-stranded DNA, one strand shown, in vitro; not given, whole probe, mean of replicates; relative to: not given, lower = stronger binding): 1.37 ln ratio

CCC[C@H](NC(=O)[C@@H]1[C@H]2CCC[C@H]2CN1C(=O)[C@@H](NC(=O)[C@@H](NC(=O)c1cnccn1)C1CCCCC1)C(C)(C)C)C(=O)C(=O)NC1CC1
inhibition (SARS-CoV-2; cytopathic effect; Vero E6; 10 µM, 96 h): -0.44%

GAGTCGTCTCGTCAGCACCATTCAGCCGTAGAGCACTCAGGTC
relative binding energy (T1, Sox-I, HMG box (Salpingoeca helianthica); Spec-seq; double-stranded DNA, one strand shown, in vitro; not given, whole probe, mean of replicates; relative to: not given, lower = stronger binding): 0.257 ln ratio
